Experimental data from different studies.
± gives the spread as reported.
Technique: steady-state kinetics
B1: cyc1 V329A (Streptomyces coelicolor, UniProt Q9K499); chain MHAFPHGTTATPTAIAVPPSLRLPVIEAAFPRQLHPYWPKLQETTRTWLLEKRLMPADKVEEYADGLCYTDLMAGYYLGAPDEVLQAIADYSAWFFVWDDRHDRDIVHGRAGAWRRLRGLLHTALDSPGDHLHHEDTLVAGFADSVRRLYAFLPATWNARFARHFHTVIEAYDREFHNRTRGIVPGVEEYLELRRLTFAHWIWTDLLEPSSGCELPDAVRKHPAYRRAALLSQEFAAWYNDLCSLPKEIAGDEVHNLGISLITHHSLTLEEAIGEVRRRVEECITEFLAVERDALRFADELADGTVRGKELSGAVRANVGNMRNWFSSAYWFHHESGRYMVDSWDDRSTPPYVNNEAAGEK
B2: protein Y93G (Thermus thermophilus, UniProt Q5SKR5); chain MSAPKPFVIGIAGGTASGKTTLAQALARTLGERVALLPMDHYYKDLGHLPLEERLRVNYDHPDAFDLALYLEHAQALLRGLPVEMPVYDFRAGTRSPRRTPVRPAPVVILEGILVLYPKELRDLMDLKVFVDADADERFIRRLKRDVLERGRSLEGVVAQYLEQVKPMHLHFVEPTKRYADVIVPRGGQNPVALEMLAAKALARLARMGAA
B3: enzyme (Vitis vinifera, UniProt F6HSW4); chain MAVDSGLSSPLGPPACEKDAKALQFIEEMTRNPDQVQEKILAEILSQNGETEYLQRFKLAGATDRDTFKSKVPVVTYEDLQPDIQRIANGDRSPILSSHPISEFLTSSGTSAGERKLMPTIHEEWDRRQKLYSLLMPVMNLYVPGLDKGKGLYFLFVKSETKTPSGLVARPVLTGYYRSEHFKKRPYDPYNVYTSPDEAILCVDSFQSMYAQMLCGLLMHKEVLRVGAVFASGLLRAIRFLQVHWQQLAHDISTGILNPKITDPSVREGLAGILKPSQELADFIIQECSGGNWERIITRIWPNTKYLDVIVTGAMAQYIPTLDYFSGGIPLACTMYASSECYFGLNLKPMSKPSEVSYTIMPNMGYFEFLPHDPSAPPLSRDSPPRLVDLADVEVGKEYELVITTYAGLCRYRVGDILQVTGFHNSAPQFQFIRRKNVLLSIDSDKTDEAELQKAVENASLLLREFNTSVVEYTSFADTKTIPGHYVIYWELLVKDPSNSPTDTVLKQCCLAMEESLNTVYRQGRVADNSIGPLEIRVVKSGTFEELMDYAISRGASINQYKVPRCVNFTPIMELLDSRVLSTYFSPAAPHWTPERRRTD
B4: Tcur_2987 (Thermomonospora curvata, UniProt D1A807); chain ACSEERAAGARPSATQTTGTATEPFHGPHQAGIATPPQAHAVFLGLDLRKGTGRKELGRLMRLLTDDARRLTQGRPALADPEPDLAPLPSRLTFTFGFGPGLFKAAGLEKQRPEGLRPLPPFKVDRLEDRWSGGDLLVQICCDDPITLAHALRMTVKDARAFTRVRWVQRGFRRSPGVQSSGATQRNLMGQLDGTVNPVPGTADFDQAVWVQDGPEWLRGGTTLVLRRIRMELEKWDEADPAGKEFAVGRRLTSGAPLTGRHEHDEPDFDAVDSAGFPVIAENAHIRLAHVDSPRLRMLRRPYNYDEGLTADGRSDAGLLFAAYQADIDRQFIPVQRRLDEGGDLLNLWTTPIGSAVFAIPPGCDENGWIGQGLLG
B5: putA N1014A (Rhodobacter capsulatus, UniProt D5AN87); chain MTDLSALGPKAKFAPEAEVLQALVAQAALPQPQLDRIAARGADLVARIRAEAKPSLMEHFLAQYGLSTREGVALMCLAEAMLRVPDTATIDALIEDKIAPSDWGKHLGTAASSLVNASTWALMLTGKVLDDGAGGIAGTLRGAMRRLGEPVIRAAVGQAMREMGRQFVLGETIEKALERAEKREAEGYTFSYDMLGEAALTAADAERYRLAYAQAITAIGKAATRGSIAANPGISIKLSALHPRYEVAQEARVMAELVPVVRDLARAAARAGIALHIDAEEQDRLALSLRVMAAVIADPETAGWEGFGAVVQAYGKRAGAAIDALAAMARAAGRRINIRLVKGAYWDAEMKRAQVEGHPGFPLFTSKTGTDVAYICLAAKLFGLNDCIYPQFATHNAHTVAAVLEMAAGRPFEFQRLHGMGARLHDIVLRETGGRCRIYAPVGAHRDLLAYLVRRLLENGANSSFVNQIVNESVPPAEVAACPFAALPTARAPRGLLAPADLFGAGRVNAQGFDLSDPEVLARIEAARDVTLPDAAPIVAGPVSGTLRPVRNPATGAVVAQVTEADAATVALALDAAQVWSAPAATRAAVLCRAADLYEENFGPIFAALAQEAGKTLGDAVSELREAVDFLRYYAAEGAADTRPPRGAVVAISPWNFPLAIFTGQVAAALMAGNAVLAKPAEQTPIIAALAVRLLHQAGVPETALQLLPGDGPTVGAALTRDPRVAGVVFTGSTETAQIIARAMAAHLAPGTPLIAETGGLNAMVVDSTALPEQAVRDVVASAFRSAGQRCSALRCLYVQDDIAPHLIGMLKGAMEELVSGDPARLSTDVGPVIDAEAKAGIETYLAANKARILHRSTAPEGGHFVAPALLQVGGIADLEREIFGPVLHLATFAAEDLPAVIAAINARGYGLTFGLHSRIDARVETVAETIRAGNIYVNRNQIGAVVGSQPFGGEGLSGTGPKAGGPLYLNRFYAPEPVVAVGGWTEAATPILPEARETQLDEIFLPGPTGELARLTRHQRGPILCLGPGAEAASAQAAAVVALGGQAVQASGAVSPKALETLTPLAGVLWWGAAEMGRAYAQALAVRPGPLVPLITAKPDLAHVAHERHLCVDTTAAGGNAALLAG
B6: POLI (Homo sapiens, UniProt Q9UNA4); chain MEKLGVEPEEEGGGDDDEEDAEAWAMELADVGAAASSQGVHDQVLPTPNASSRVIVHVDLDCFYAQVEMISNPELKDKPLGVQQKYLVVTCNYEARKLGVKKLMNVRDAKEKCPQLVLVNGEDLTRYREMSYKVTELLEEFSPVVERLGFDENFVDLTEMVEKRLQQLQSDELSAVTVSGHVYNNQSINLLDVLHIRLLVGSQIAAEMREAMYNQLGLTGCAGVASNKLLAKLVSGVFKPNQQTVLLPESCQHLIHSLNHIKEIPGIGYKTAKCLEALGINSVRDLQTFSPKILEKELGISVAQRIQKLSFGEDNSPVILSGPPQSFSEEDSFKKCSSEVEAKNKIEELLASLLNRVCQDGRKPHTVRLIIRRYSSEKHYGRESRQCPIPSHVIQKLGTGNYDVMTPMVDILMKLFRNMVNVKMPFHLTLLSVCFCNLKALNTAKKGLIDYYLMPSLSTTSRSGKHSFKMKDTHMEDFPKDKETNRDFLPSGRIESTRTRESPLDTTNFSKEKDINEFPLCSLPEGVDQEVFKQLPVDIQEEILSGKSREKFQGKGSVSCPLHASRGVLSFFSKKQMQDIPINPRDHLSSSKQVSSVSPCEPGTSGFNSSSSSYMSSQKDYSYYLDNRLKDERISQGPKEPQGFHFTNSNPAVSAFHSFPNLQSEQLFSRNHTTDSHKQTVATDSHEGLTENREPDSVDEKITFPSDIDPQVFYELPEAVQKELLAEWKRAGSDFHIGHK
B7: protein (Allochromatium vinosum, UniProt P45370); chain MFPIDIRPDKLTQEMLDYSRKLGQGMENLLNAEAIDTGVSPKQAVYSEDKLVLYRYDRPEGAPEAQPVPLLIVYALVNRPYMTDIQEDRSTIKGLLATGQDVYLIDWGYPDQADRALTLDDYINGYIDRCVDYLREAHGVDKVNLLGICQGGAFSLMYSALHPDKVRNLVTMVTPVDFKTPDNLLSAWVQNVDIDLAVDTMGNIPGELLNWTFLSLKPFSLTGQKYVNMVDLLDDPDKVKNFLRMEKWIFDSPDQAGETFRQFIKDFYQNNGFLNGGVVLGGQEVDLKDITCPVLNIFALQDHLVPPDASRALKGLTSSPDYTELAFPGGHIGIYVSGKAQKEVTPAIGKWLNER
B8: MMP2 (Homo sapiens, UniProt P08253); chain YNFFPRKPKWDKNQITYRIIGYTPDLDPETVDDAFARAFQVWSDVTPLRFSRIHDGEADIMINFGRWEHGDGYPFDGKDGLLAHAFAPGTGVGGDSHFDDDELWTLGEGQVVRVKYGNADGEYCKFPFLFNGKEYNSCTDTGRSDGFLWCSTTYNFEKDGKYGFCPHEALFTMGGNAEGQPCKFPFRFQGTSYDSCTTEGRTDGYRWCGTTEDYDRDKKYGFCPETAMSTVGGNSEGAPCVFPFTFLGNKYESCTSAGRSDGKMWCATTANYDDDRKWGFCPDQGYSLFLVAAHEFGHAMGLEHSQDPGALMAPIYTYTKNFRLSQDDIKGIQELYGASPDIDLGTGPTPTLGPVTPEICKQDIVFDGIAQIRGEIFFFKDRFIWRTVTPRDKPMGPLLVATFWPELPEKIDAVYEAPQEEKAVFFAGNEYWIYSASTLERGYPKPLTSLGLPPDVQRVDAAFNWSKNKKTYIFAGDKFWRYNEVKKKMDPGFPKLIADAWNAIPDNLDAVVDLQGGGHSYFFKGAYYLKLENQSLKSVKFGSIKSDWLGC
B9: YdjH (Escherichia coli, UniProt P77493); chain MDNLDVICIGAAIVDIPLQPVSKNIFDVDSYPLERIAMTTGGDAINEATIISRLGHRTALMSRIGKDAAGQFILDHCRKENIDIQSLKQDVSIDTSINVGLVTEDGERTFVTNRNGSLWKLNIDDVDFARFSQAKLLSLASIFNSPLLDGKALTEIFTQAKARQMIICADMIKPRLNETLDDICEALSYVDYLFPNFAEAKLLTGKETLDEIADCFLACGVKTVVIKTGKDGCFIKRGDMTMKVPAVAGITAIDTIGAGDNFASGFIAALLEGKNLRECARFANATAAISVLSVGATTGVKNRKLVEQLLEEYEG
Chain of UniProt Q8N6T7 (whole entry, looked up): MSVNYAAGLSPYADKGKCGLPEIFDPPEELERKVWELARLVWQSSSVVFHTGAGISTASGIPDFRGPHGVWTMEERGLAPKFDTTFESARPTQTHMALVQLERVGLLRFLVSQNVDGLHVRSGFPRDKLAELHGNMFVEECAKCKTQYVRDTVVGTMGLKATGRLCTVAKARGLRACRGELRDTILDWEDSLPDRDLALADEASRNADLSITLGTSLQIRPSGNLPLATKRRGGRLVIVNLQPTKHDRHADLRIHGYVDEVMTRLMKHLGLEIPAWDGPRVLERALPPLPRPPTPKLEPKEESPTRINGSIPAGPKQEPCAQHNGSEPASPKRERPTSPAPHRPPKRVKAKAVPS
Chain of UniProt P12081 (whole entry, looked up): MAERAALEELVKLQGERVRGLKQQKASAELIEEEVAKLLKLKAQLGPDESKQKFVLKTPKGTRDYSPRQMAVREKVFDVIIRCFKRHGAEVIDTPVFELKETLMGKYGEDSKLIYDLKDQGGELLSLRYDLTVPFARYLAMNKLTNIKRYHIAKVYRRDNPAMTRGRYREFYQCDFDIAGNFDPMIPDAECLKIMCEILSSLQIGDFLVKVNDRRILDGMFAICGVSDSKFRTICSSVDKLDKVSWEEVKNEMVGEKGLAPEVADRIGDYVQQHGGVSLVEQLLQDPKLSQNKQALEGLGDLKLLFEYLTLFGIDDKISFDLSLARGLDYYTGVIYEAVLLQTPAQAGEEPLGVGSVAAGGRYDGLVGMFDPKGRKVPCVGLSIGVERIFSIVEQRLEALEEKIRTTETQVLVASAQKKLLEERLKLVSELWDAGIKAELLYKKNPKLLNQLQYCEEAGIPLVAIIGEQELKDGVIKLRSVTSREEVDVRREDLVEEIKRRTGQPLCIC
Chain of UniProt P07914 (whole entry, looked up): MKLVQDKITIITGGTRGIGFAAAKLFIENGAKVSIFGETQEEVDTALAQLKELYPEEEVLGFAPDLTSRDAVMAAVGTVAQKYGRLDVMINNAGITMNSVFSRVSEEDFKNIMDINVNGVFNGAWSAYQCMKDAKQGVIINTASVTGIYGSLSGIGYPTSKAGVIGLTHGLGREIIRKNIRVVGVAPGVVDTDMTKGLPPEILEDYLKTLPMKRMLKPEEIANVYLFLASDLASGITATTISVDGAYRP

| Substance | substrate | conditions | kcat/Km |
| --- | --- | --- | --- |
| Ptb (Listeria monocytogenes, UniProt Q8Y7B7) | CCC(=O)SCCNC(=O)CCNC(=O)[C@H](O)C(C)(C)COP(=O)(O)OP(=O)(O)OC[C@H]1O[C@@H](n2cnc3c(N)ncnc32)[C@H](O)[C@@H]1OP(=O)(O)O | pH 7.5, 25 °C, apparent | 2.72e+06 M⁻¹ s⁻¹ |
| B1 (cyc1 V329A) | CC(C)=CCC/C(C)=C/CC/C(C)=C/CO[P@@](=O)(O)OP(=O)(O)O | pH 6.5, 30 °C, together with: MgCl2 10 mM | 270000 ± 50000 M⁻¹ s⁻¹ |
| B2 (protein Y93G) | Nc1ccn([C@@H]2O[C@H](CO)[C@@H](O)[C@H]2O)c(=O)n1 | pH 7.2, 25 °C, KCl 100 mM, together with: ATP 100–200 µM | 4600 M⁻¹ s⁻¹ |
| SIRT6 (Homo sapiens, UniProt Q8N6T7) | CSCC[C@H](NC(=O)[C@H](CC(C)C)NC(=O)[C@H](CCCCNC(C)=O)NC(=O)[C@H](CCCCN)NC(=O)[C@H](Cc1c[nH]cn1)NC(=O)[C@H](CCCNC(=N)N)NC(=O)[C@H](CO)NC(=O)[C@@H](NC(=O)[C@H](CO)NC(=O)[C@H](CCC(N)=O)NC(=O)CNC(=O)[C@H](CCCCN)NC(=O)[C@@H](N)CCCCN)[C@@H](C)O)C(=O)N[C@@H](Cc1ccccc1)C(=O)N[C@@H](CCCCN)C(=O)N[C@H](C(=O)N[C@@H](CCC(=O)O)C(=O)NCC(=O)O)[C@@H](C)O | pH 7.5, 37 °C, together with: NAD+ 800 µM, SIRT6 10 µM | 0.9 M⁻¹ s⁻¹ |
| B3 (enzyme) | O=C(O)Cc1cccc2ccccc12 | pH 8.6, 25 °C | 904 M⁻¹ s⁻¹ |
| B4 (Tcur_2987) | Nc1c(S(=O)(=O)O)cc(Nc2cccc(S(=O)(=O)CCOS(=O)(=O)O)c2)c2c1C(=O)c1ccccc1C2=O | pH 3, sigmoidal kinetics, together with: H2O2 1 mM | 2.3e+06 M⁻¹ s⁻¹ |
| BaiA1 (Clostridium scindens, UniProt P07914) | C[C@H](CCC(=O)SCCNC(=O)CCNC(=O)[C@H](O)C(C)(C)COP(=O)(O)OP(=O)(O)OC[C@H]1O[C@@H](n2cnc3c(N)ncnc32)[C@H](O)[C@@H]1OP(=O)(O)O)[C@H]1CC[C@H]2[C@@H]3[C@H](O)C[C@@H]4C[C@H](O)CC[C@]4(C)[C@H]3CC[C@]12C | pH 8.7, 37 °C, together with: NAD+ | 15400 M⁻¹ s⁻¹ |
| B5 (putA N1014A) | O=C(O)[C@@H]1CCCN1 | pH 8, 23 °C | 110 ± 21 M⁻¹ s⁻¹ |
| B6 (POLI) | Cc1cn([C@H]2C[C@H](O)[C@@H](COP(=O)(O)OP(=O)(O)OP(=O)(O)O)O2)c(=O)[nH]c1=O | pH 8, 37 °C, misinsertion opposite dT, together with: Mg2+ | 24.3 ± 1 M⁻¹ s⁻¹ |
| enzyme (Mus musculus, UniProt P08680) | CC(C)(COP(=O)(O)OP(=O)(O)OC[C@H]1O[C@@H](n2cnc3c(N)ncnc32)[C@H](O)[C@@H]1OP(=O)(O)O)[C@@H](O)C(=O)NCCC(=O)NCCSC(=O)CCC(=O)O | pH 7.5, 37 °C | 250000 ± 30000 M⁻¹ s⁻¹ |
| B7 (protein) | C#CC[C@@H](O)CC(=O)SCCNC(=O)CCNC(=O)[C@H](O)C(C)(C)COP(=O)(O)OP(=O)(O)OC[C@H]1O[C@@H](n2cnc3c(N)ncnc32)[C@H](O)[C@@H]1OP(=O)(O)O | pH 7.8, 30 °C | 59800 M⁻¹ s⁻¹ |
| B8 (MMP2) | CSCC[C@H](NC(=O)CNC(=O)[C@H](CC(C)C)NC(=O)[C@@H]1CCCN1C(=O)CNC(C)=O)C(=O)N[C@@H](Cc1c[nH]cn1)C(=O)NCC(=O)N[C@@H](CCCCN)C(N)=O | – | 170000 M⁻¹ s⁻¹ |
| HARS1 (Homo sapiens, UniProt P12081) | N[C@@H](Cc1c[nH]cn1)C(=O)O | pH 7.5, 37 °C, KCl 150 mM, together with: tRNA(His) | 500000 ± 400000 M⁻¹ s⁻¹ |
| B9 (YdjH) | O=C(O)[C@H](O)[C@@H](O)[C@H](O)[C@H](O)CO | pH 7.4, 30 °C, KCl 100 mM, together with: ATP 2.0 mM, MgCl2 5.0 mM | 1400 ± 100 M⁻¹ s⁻¹ |

For quick reference, copied from above:
| Substance | substrate | conditions | kcat/Km |
| --- | --- | --- | --- |
| B7 (protein) | C#CC[C@@H](O)CC(=O)SCCNC(=O)CCNC(=O)[C@H](O)C(C)(C)COP(=O)(O)OP(=O)(O)OC[C@H]1O[C@@H](n2cnc3c(N)ncnc32)[C@H](O)[C@@H]1OP(=O)(O)O | pH 7.8, 30 °C | 59800 M⁻¹ s⁻¹ |
